Measurements gathered from unrelated publications.
Each numbered part is a random draw from the data of one study; scales do not carry over between parts. Substitutions count along the parent as printed.

Series 1
Target: CCNE2, cyclin fold, Cln2 fusion (human)
Technique: yeast growth competition, sequencing
Sample: yeast
Notes: strong parent motif
Relative to: not given
Reading: higher = stronger binding
Starting sequence: E2F1 docking peptide (human); PPVKRRLDLETDH
| Substitution | normalised enrichment score |
| --- | --- |
| L7R | 0.318 |
| R5A | -0.0365 |
| D12G | 1.57 |
| P2N | 1.1 |
| E10F | 1.01 |
| D12N | 1.15 |

Series 2
Target: RING finger protein unkempt homolog, zinc fingers 1-6, GST-SBP tag (UNK, Homo sapiens, UniProt Q9C0B0, residues 30-357)
Chain of UniProt Q9C0B0 (30-357, looked up): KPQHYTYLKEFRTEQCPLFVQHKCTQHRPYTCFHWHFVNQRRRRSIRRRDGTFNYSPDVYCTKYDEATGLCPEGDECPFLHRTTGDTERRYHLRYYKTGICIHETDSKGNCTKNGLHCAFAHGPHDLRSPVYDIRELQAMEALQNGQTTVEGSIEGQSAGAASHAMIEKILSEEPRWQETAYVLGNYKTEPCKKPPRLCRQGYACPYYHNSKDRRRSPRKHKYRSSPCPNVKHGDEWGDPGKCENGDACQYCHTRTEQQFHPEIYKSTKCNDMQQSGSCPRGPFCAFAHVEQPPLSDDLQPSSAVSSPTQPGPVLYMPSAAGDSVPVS
Technique: RNA Bind-n-Seq
Molecule type: RNA
Sample: in vitro
Concentration: not given
Notes: RNA with constant flanks, ends assumed
Relative to: input RNA pool
Reading: higher = stronger binding
Constant ends, left off below: GGGAGUUCUACAGUCCGACGAUC … CAACAGAGGAUUGAGCAUCA
| Strand | bound/input enrichment |
| --- | --- |
| AAUGGCAAUGGGGGACCUGGUCCCUAUGUGGGGCAAGCUGGCACUGCUACCCUUCCCCGGAACUUCCACUACCCUCCUGAUGGUUAUAGUCGCCACUAUGAAGAUGGUUAUCCAGGUGGC | 0.184 ratio |
| ACAGUUAGAAAGCAAAGUGUUAAAUGGAGAAGAUACUUGUUUUUAUUAAACAUUUUGAGAUUCCGAUAAACUACAUUUUAACUGAAUGUCUAAAGUGAUUAUCUUUUUUCCCCCCAAGUU | 0.222 ratio |
| UGAGAAUAAUCCUUUUUUUUUCACUAAUGGCAUUGAUGACAUGUUUGAAUCCUGUGUGUUGCAUUCCGAAAAGUAUUCUGAUGACUGUUAUAAACAGUGUGGUGUGAGGCCAUGGACUUC | 0.402 ratio |
| UAGGAAUGCUCGGGCUAAAGGAAUGUCAUUUUACAAGUAUGUAAUGGAAAGUCGUGAUCCCCGUACAAAUGUGAUAUUAUUGGAGGAUACUGCUGCAGUCUUGGGAGUUAUAAUAGCAGC | 0.631 ratio |
| GCGGGCGCAGUGUUAUCCACACAGUGAAAUAAGACUGUCAGAAAAUUUCAGCCUCGUGGACCGUAAUUUUAAUGCCUGUACCACCUGUUUCUGGACAGUUCUCUUGGAGGAGCGAAGAAU | 0.179 ratio |
| GAGUAAGCAUGCUGUACAUUGUUUUGUGUUUAGUUUUACACCAAACUGUAUUACAGUACUCUCCGUAUUCACCAGCAUACUCACUAUCUGCCUAAGAUAUGCAGCCUUUGUGUUACAAUA | 0.202 ratio |
| GGGAAGCAGUUUGACUCUCCCAUGCCAAGCCCCUUCCAUGGUGGAAGUUUCACUCUUCCCUCCGACACUAUGAAGAAUGAGAGAGUCUCAGAAGGACCACGACCCUUUGCCCCUGUCUUC | 0.171 ratio |

Series 3
Target: Fragile X messenger ribonucleoprotein 1, C-terminal low-complexity region (Fmr1, Mus musculus, UniProt P35922)
Technique: RNA Bind-n-Seq
Molecule type: RNA
Sample: in vitro
Concentration: 200 nM
Notes: whole 134-nt RNA, ends assumed
Added: 150 mM KCl
Relative to: input library
Reading: higher = stronger binding
Constant ends, left off below: GGGAGUUCUACAGUCCGACGAUC … UGGAAUUCUCGGGUGUCAAGG
| Strand | log2 enrichment |
| --- | --- |
| ACCAUGCAGGUGGGCAUCUUUGGGAAAAAGGGCAAGGGGGGGAUAGGGAGGGGGGUAACACUUUGGGAACAGGUGGUCCCAGGUCGUUUC | 0.872 |
| UCAAGUCCUGUGCUACACAUCGUAUGUACCGAAUCGGGUUGGGUUGGGGUUGGGAAAGUAUUAUGUUACGCCGUUCGGAUCUGCACUUCC | 1.38 |
| AGUCCUGUGCUACACAUCGUAUGUACCGAAUCGGUUUUUGGGUUUUUGGGGUUUUUGGAAAGUAUUAUGUUACGCCGUUCGGAUCUGCAC | -0.187 |
| GUCCUGUGCUACACAUCGUAUGUACCGAAUCAAAUUUUUUUAAACCCCCAAAUUUAAAAAAGUAUUAUGUUACGCCGUUCGGAUCUGCAC | -0.0767 |
| GUCCUGUGCUACACAUCGUAUGUACCGAAUCGGGGUUUUUGGGGAAAGGGGUUUGGGGAAAGUAUUAUGUUACGCCGUUCGGAUCUGCAC | 0.649 |
| CAAGUCCUGUGCUACACAUCGUAUGUACCGAAUCGGUUUUUGGAAAGGAAAAAGGAAAGUAUUAUGUUACGCCGUUCGGAUCUGCACUUC | -0.665 |
| UUGACGAGGCCGGCCCGGGAGAUGAGACCACCGGCCAGGAAGUCAUUGUCAUUCAGGACACGGGCUUUUCUGUGAAGAUCCUCGCCCCUG | -1.68 |

Single results of other studies
| Substance | target | test | test system | conditions | how to read | endpoint | result |
| --- | --- | --- | --- | --- | --- | --- | --- |
| PhoQ, residues 284 288 289 292 302 303 AGGCYF | PhoP, residues 12 14 15 18 19 NQFFI (Escherichia coli, UniProt P23836) | Sort-seq, item: YFP reporter | E. coli | PhoQ-PhoP variant library, added: 10 µM Mg2+ | relative to: high Mg2+ state, higher = stronger signaling | fold induction | 1.69 |
